Results of several laboratories.
Parts stem from different laboratories: compare values within a part only.
Chain of UniProt Q9Y3S1 (whole entry, looked up): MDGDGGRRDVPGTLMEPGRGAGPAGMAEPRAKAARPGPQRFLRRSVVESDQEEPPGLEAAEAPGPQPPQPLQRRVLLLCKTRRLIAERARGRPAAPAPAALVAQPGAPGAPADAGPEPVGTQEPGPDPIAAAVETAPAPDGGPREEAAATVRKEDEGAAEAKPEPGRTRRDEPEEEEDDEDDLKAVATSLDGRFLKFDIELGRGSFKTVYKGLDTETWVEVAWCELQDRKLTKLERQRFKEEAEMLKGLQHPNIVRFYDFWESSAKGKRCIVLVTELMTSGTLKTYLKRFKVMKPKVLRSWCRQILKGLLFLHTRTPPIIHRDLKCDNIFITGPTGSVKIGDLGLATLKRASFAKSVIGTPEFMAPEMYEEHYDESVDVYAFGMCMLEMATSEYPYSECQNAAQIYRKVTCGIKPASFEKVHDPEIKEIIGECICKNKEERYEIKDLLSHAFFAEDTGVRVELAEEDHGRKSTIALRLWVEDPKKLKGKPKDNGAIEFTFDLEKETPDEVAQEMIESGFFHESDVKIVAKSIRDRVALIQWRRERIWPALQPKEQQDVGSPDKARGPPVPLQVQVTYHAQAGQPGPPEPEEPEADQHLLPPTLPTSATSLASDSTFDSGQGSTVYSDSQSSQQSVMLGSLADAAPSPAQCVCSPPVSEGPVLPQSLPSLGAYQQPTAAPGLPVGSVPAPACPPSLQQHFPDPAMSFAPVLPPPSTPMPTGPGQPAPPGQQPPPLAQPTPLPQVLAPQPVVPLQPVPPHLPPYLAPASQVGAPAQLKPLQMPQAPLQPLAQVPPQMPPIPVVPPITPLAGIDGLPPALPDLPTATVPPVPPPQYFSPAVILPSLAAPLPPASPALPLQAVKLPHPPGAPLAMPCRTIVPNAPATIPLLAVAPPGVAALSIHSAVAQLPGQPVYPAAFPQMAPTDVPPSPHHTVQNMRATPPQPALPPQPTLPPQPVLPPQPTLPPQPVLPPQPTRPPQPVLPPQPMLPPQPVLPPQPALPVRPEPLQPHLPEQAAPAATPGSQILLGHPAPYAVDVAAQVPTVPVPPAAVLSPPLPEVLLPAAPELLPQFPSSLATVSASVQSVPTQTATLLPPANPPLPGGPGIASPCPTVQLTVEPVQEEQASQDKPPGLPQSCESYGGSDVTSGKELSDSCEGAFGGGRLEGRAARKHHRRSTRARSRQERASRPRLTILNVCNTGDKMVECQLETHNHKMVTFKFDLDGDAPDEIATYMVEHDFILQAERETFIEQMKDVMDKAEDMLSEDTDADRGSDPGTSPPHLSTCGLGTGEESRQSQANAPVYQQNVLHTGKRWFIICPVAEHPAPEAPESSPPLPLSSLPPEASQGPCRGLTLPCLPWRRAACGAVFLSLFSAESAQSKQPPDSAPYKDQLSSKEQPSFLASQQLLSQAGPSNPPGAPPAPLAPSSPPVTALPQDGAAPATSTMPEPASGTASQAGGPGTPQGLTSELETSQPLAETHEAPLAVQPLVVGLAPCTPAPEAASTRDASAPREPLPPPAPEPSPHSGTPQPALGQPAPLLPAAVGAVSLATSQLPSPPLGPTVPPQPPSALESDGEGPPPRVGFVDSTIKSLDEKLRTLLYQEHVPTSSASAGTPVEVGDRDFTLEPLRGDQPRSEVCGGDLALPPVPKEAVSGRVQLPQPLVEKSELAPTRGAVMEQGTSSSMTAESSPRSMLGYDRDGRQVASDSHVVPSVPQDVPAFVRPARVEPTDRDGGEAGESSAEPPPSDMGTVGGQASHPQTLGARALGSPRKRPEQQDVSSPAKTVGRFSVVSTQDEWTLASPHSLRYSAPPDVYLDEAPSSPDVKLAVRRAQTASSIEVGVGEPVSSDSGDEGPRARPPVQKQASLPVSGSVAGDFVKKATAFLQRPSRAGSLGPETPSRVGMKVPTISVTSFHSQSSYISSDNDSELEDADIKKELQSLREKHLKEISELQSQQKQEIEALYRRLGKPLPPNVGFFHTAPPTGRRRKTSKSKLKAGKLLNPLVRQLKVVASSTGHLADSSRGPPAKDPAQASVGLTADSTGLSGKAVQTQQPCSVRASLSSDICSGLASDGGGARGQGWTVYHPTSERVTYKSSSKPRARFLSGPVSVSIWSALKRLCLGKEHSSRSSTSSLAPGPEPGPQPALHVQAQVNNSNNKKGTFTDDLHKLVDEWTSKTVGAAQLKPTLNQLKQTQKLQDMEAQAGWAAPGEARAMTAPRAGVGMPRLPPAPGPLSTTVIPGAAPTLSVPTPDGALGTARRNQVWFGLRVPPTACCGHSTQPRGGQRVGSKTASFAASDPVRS
Chain of UniProt Q00536 (whole entry, looked up): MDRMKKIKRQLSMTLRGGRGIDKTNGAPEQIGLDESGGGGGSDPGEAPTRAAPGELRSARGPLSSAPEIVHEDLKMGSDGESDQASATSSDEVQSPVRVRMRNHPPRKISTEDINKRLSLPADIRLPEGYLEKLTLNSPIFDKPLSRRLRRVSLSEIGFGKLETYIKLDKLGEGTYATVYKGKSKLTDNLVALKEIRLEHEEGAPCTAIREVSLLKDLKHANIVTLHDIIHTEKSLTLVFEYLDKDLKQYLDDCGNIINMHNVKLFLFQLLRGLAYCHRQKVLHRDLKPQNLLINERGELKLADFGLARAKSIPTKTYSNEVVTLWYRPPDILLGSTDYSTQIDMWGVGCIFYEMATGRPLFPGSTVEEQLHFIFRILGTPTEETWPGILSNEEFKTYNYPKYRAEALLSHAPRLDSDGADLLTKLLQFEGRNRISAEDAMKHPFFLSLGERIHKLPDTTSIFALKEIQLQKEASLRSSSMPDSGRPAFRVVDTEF
Chain of UniProt P07949 (whole entry, looked up): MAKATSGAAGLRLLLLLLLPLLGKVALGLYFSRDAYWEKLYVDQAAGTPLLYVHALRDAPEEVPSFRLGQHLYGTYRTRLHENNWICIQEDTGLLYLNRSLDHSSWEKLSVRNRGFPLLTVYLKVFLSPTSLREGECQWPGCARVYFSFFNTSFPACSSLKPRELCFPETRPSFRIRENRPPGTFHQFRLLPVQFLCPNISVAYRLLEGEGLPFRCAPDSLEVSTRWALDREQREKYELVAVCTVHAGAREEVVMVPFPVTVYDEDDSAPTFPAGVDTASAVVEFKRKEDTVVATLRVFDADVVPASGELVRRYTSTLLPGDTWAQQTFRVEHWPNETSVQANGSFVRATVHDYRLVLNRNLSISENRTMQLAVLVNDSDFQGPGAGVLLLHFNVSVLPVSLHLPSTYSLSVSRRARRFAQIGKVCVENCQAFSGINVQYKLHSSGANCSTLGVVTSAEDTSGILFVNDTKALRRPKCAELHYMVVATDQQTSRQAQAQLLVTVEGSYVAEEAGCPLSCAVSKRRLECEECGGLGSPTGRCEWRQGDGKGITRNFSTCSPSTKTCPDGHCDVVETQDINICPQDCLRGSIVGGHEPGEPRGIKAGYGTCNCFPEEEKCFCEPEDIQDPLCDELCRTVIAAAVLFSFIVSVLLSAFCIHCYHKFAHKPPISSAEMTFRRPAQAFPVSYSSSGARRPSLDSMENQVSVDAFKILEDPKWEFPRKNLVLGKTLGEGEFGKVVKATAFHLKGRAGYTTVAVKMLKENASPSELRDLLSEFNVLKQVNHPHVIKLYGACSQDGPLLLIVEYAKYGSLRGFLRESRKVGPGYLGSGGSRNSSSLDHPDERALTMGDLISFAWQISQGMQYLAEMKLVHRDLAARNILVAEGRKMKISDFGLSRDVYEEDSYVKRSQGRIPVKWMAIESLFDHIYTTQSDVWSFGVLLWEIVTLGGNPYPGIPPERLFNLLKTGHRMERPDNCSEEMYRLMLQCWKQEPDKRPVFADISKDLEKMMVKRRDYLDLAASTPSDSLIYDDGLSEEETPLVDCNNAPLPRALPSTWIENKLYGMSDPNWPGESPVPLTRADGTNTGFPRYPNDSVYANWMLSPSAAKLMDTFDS
Chain of UniProt Q00526 (whole entry, looked up): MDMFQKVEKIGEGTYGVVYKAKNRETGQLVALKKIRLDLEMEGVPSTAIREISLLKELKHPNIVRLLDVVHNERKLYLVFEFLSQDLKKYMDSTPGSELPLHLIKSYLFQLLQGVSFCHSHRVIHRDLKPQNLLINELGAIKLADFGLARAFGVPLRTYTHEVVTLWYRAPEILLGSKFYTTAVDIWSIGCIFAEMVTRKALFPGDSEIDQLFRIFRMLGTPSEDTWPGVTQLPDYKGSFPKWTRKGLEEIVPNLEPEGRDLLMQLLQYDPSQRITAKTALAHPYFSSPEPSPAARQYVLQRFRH

Study 1
Structure (SMILES): COc1ccc2cc(OCC3(C(=O)O)CN(C(=O)c4ccc(F)cc4)C3)ccc2c1
Observed: cell-free assay
Technique: competition with immobilised ligand
Concentration: 1 µM
target	remaining binding
Tyrosine-protein kinase JAK1, JH1 (JAK1, Homo sapiens, UniProt P23458)	93%
RIOK2 (Homo sapiens, UniProt Q9BVS4)	100%
CDK3 (Homo sapiens, UniProt Q00526)	83%
MTOR (Homo sapiens, UniProt P42345)	100%
ITK (Homo sapiens, UniProt Q08881)	100%
ROS1 (Homo sapiens, UniProt P08922)	81%
CDK16 (Homo sapiens, UniProt Q00536)	100%
WNK2 (Homo sapiens, UniProt Q9Y3S1)	84%
RET (Homo sapiens, UniProt P07949)	100%
NUAK2 (Homo sapiens, UniProt Q9H093)	92%
MAP3K13 (Homo sapiens, UniProt O43283)	100%

Study 2
Target: Eukaryotic initiation factor 4A-I (EIF4A1, Homo sapiens, UniProt P60842, residues 1-406, full length assumed)
Chain of UniProt P60842 (whole entry, looked up): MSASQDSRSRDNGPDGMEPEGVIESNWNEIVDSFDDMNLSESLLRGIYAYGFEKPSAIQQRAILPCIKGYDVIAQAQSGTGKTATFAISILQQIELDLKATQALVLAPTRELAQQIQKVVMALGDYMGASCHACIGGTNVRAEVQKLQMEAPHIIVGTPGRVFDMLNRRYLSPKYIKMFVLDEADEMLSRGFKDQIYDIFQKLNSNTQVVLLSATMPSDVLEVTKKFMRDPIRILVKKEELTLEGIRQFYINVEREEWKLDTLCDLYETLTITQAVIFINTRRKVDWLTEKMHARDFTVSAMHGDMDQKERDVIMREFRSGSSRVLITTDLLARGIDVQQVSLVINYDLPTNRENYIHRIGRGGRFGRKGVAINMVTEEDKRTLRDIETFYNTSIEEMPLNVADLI
Technique: RNA Bind-n-Seq
Form: RNA
Matrix: in vitro
Concentration: not given
Notes: 4-mer, random 30-nt RNA, single round
Together with: RocA, ADP, phosphate
Relative to: input library
Direction: higher = stronger binding
Sequence	4-mer enrichment
AUAA	1 fold
GCGU	0.916 fold
CCUA	0.604 fold
CUUC	0.488 fold
UCAG	0.798 fold
GUAC	0.769 fold
GCUU	0.677 fold
AACG	0.878 fold

Study 3
Target: Hepatocyte nuclear factor 3-alpha (Foxa1, Mus musculus, UniProt P35582, residues 1-468, full length assumed)
Chain of UniProt P35582 (whole entry, looked up): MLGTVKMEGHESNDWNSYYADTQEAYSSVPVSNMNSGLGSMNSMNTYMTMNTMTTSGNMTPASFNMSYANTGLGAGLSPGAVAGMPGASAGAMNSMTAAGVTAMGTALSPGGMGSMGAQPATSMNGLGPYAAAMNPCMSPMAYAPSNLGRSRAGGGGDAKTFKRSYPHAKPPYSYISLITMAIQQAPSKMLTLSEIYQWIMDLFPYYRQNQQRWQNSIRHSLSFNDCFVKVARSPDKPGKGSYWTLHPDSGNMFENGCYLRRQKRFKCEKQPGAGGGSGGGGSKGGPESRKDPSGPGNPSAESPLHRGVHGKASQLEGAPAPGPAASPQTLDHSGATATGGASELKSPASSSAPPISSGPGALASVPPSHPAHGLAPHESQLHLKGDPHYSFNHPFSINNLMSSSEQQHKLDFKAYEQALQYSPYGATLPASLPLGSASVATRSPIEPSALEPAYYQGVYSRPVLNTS
Technique: EMSA with sequencing
Form: double-stranded DNA, one strand shown
Matrix: in vitro
Concentration: 10 and 20 nM
Notes: whole designed probe, mean of two concentrations, ends assumed
Relative to: negative control set to 0
Direction: higher = stronger binding
All sequences stand within: GTGAGCGGTGCCCATTGATGGGGAAC … TTTCACTGGGATCGTGGGGAC
Sequence	normalised bound fraction
TGAAGCCTAGTGTTCTCTCTCAACCCCAGCTCAAACAGATATTTTGAAAAGGAAACAGAAACTCCACACACTTCCCTGTTTGCCTATTTCCATGTTTACATTTCTCTAACAGCTAACACTATGTTTGGTTAGTTTAACTAAGTTATCCTGCTCACTTAAAATTCTATTTTTTTCTGGTTATATCTGACAATAG	0.435 ratio
GTGTGCTAGCCTGTGAGTTTTTCTCTCCAACTAGCCTGGGTACTCAGGAAAGTGAGATCAACTTCTGGGTTTGGGTGTAGCGGCCTGACCTGTGCAAATAGGGGAGACAGTTGACATACAGATGAAAGGGGAGATGGGAAGCCATACAGAGGAAGGAGAAGATCAGGAACCAGAGATAAGATAATTCTGTAAA	0.263 ratio
TCTGTAGCCTTTGCAAATAACCTTTTTGAACAAAAACGGCAATGGCTCATTCCAAACCCGATCAAAGAGGTATGCATGACTCACAGCCACTAAATAAACATTGATGCCTGATGGCAGTAATATGGCTATTTATATTCAGAGCCTGATTTAACCAGTGGCATTCCTGTAATAAGATAATAAGCATGAGCTGTTT	0.483 ratio
CCCTCATCCTGGGTGTCGGGGTGGGAGGTGTTCTCATCATGAATGGGAGGCGTACCCAGATCCAGCTCTGCCTTTTTTTAACCAAACCACATTTGTTTACACTCGCTGTTAATCGAGTGACTCACCACATAGCAAGATATGATACATGCCAGGAGAGAAAAAGAAAGTGCTGATGGAAAAATAATCTCATTAG	0.308 ratio
CACTCAACAGAAGGTTCTTCAATCCTCAAACTTTATCCAGTGAAAGCACTAATCCTGATATTTCTCTAGTTTCTTTGATGGCATGACCCCTTGTGTAAATATTGATAGAGATTACACTGACAGTTGTGTAAGCCAGCTGGATCCCAGCCAGGGACAAAGGAATTTATAAAAGGCCAGGAATAGAGAATCCAAG	0.48 ratio
GCTATGTTGCCCAGGCTGGTCTTGAACTCCTGGCCTCAGGCTGTCCTCCTGCTTTGGCCTCTCAAAGTGCTGTGATTACAGGCATGAGCCACTGTAATCTCAGTATTTAAATAAGCAATCCTCACACTGGGAGGGAGTGAAGGATGCCCCTCTTTGCCCTGGAAGGTACATCAGAAAAAGCCTACCAGTGGGC	0.0926 ratio
AGCTCAGAAAATAAAAGGGATAGAAAATCTACTTTATGACAGAACTATGTGTTTCTTTTGAATTGAAAAAAGTTTACATGGACAGTATCAATGTAAACAAATACTTTTTCTTCCTTGTTTGTAAATCAATATGAACTAATTGATTTATGATTTGTACGCATTGTAAACATGGTCCTCAATTAGTTCCCACATA	0.457 ratio
TCTAGTGCTCACAGAACGGCATCGCCGCGGCTCTTCTTCGCTGTGTGTCTGTGCCAAGTCTATCCAACGCCGCCAAAGTCCCCTCTGCTCTCAGCAATCTCAGGTGAAGCTCTTGCCTTCTTAAATCCTTGACTTGACCTTGCTGTCCCATAAGTCCTGAATTTCTCCTTTTCACGAGGAAGCTCTTGGAACA	-0.0803 ratio

Single results of other studies
Host: mouse
Matrix: microsomes or S9
Concentration: 2 µM
Time: 0.5 h
SMILES	remaining compound
Cc1ccc(CN2CCC(CNC(=O)c3c4c(nc5ccccc35)C(=O)N(C3CCCCC3)C4)C2)cc1 (stereo not drawn)	2.56%
COc1cc(=O)n(C)cc1C(=O)Nc1ccccc1Br	< 1%
O=C(Nc1cnccn1)c1cnc(-c2ncccn2)s1	> 100%

Excerpt of the above (study 3):
Sequence	normalised bound fraction
CCCTCATCCTGGGTGTCGGGGTGGGAGGTGTTCTCATCATGAATGGGAGGCGTACCCAGATCCAGCTCTGCCTTTTTTTAACCAAACCACATTTGTTTACACTCGCTGTTAATCGAGTGACTCACCACATAGCAAGATATGATACATGCCAGGAGAGAAAAAGAAAGTGCTGATGGAAAAATAATCTCATTAG	0.308 ratio
TGAAGCCTAGTGTTCTCTCTCAACCCCAGCTCAAACAGATATTTTGAAAAGGAAACAGAAACTCCACACACTTCCCTGTTTGCCTATTTCCATGTTTACATTTCTCTAACAGCTAACACTATGTTTGGTTAGTTTAACTAAGTTATCCTGCTCACTTAAAATTCTATTTTTTTCTGGTTATATCTGACAATAG	0.435 ratio
TCTGTAGCCTTTGCAAATAACCTTTTTGAACAAAAACGGCAATGGCTCATTCCAAACCCGATCAAAGAGGTATGCATGACTCACAGCCACTAAATAAACATTGATGCCTGATGGCAGTAATATGGCTATTTATATTCAGAGCCTGATTTAACCAGTGGCATTCCTGTAATAAGATAATAAGCATGAGCTGTTT	0.483 ratio
GCTATGTTGCCCAGGCTGGTCTTGAACTCCTGGCCTCAGGCTGTCCTCCTGCTTTGGCCTCTCAAAGTGCTGTGATTACAGGCATGAGCCACTGTAATCTCAGTATTTAAATAAGCAATCCTCACACTGGGAGGGAGTGAAGGATGCCCCTCTTTGCCCTGGAAGGTACATCAGAAAAAGCCTACCAGTGGGC	0.0926 ratio
